Results of several laboratories.
Every numbered part comes from another study and shows a few of its results, in no order. Values joined by “and” are separate records of one study, mostly repeats; a detail may differ.

Block 1 — route: subcutaneous; time: 5 days
Structure (SMILES): CC(=O)N[C@@H](Cc1c[nH]c2ccccc12)C(=O)N[C@@H](CCC(=O)C=[N+]=[N-])C(=O)OC(C)C
assay	test system	setting	how to read	metabolite peak intensity
LC-MS/MS metabolomics, refers to: orotidine	C57BL/6 CES1-/- mice, EL4 tumour, EL4 tumour	0.3 mg/kg/day DON equivalent	higher = more metabolite	2.5e+07 a.u. and 5.13e+07 a.u. and 6.8e+07 a.u. and 4.88e+07 a.u. and 3.72e+07 a.u. and 4.96e+07 a.u.
LC-MS/MS metabolomics, refers to: mannose 6-phosphate	C57BL/6 CES1-/- mice, EL4 tumour, EL4 tumour	0.3 mg/kg/day DON equivalent	higher = more metabolite	1.73e+07 a.u. and 2.1e+07 a.u. and 1.86e+07 a.u. and 2.03e+07 a.u. and 1.36e+07 a.u. and 1.87e+07 a.u.
UPLC-MS/MS metabolomics, refers to: N-acetylhistidine	C57BL/6 CES1-/- mice, EL4 tumour, EL4 tumour	0.3 mg/kg/day DON equivalent, normalised to tissue mass	higher = more metabolite	937000 a.u. and 1.1e+06 a.u. and 1.11e+06 a.u. and 656000 a.u. and 1.42e+06 a.u.
UPLC-MS/MS, refers to: inosine 5'-monophosphate	EL4, C57BL/6 CES1-/- mice, EL4 tumour, tumour	0.3 mg/kg/day DON equivalent, normalised to tissue mass	higher = more metabolite	2.36e+07 a.u. and 1.52e+08 a.u. and 2.8e+07 a.u. and 1.88e+08 a.u. and 5.03e+07 a.u. and 2.34e+08 a.u.
LC-MS/MS metabolomics, refers to: nicotinamide	C57BL/6 CES1-/- mice, EL4 tumour, EL4 tumour	0.3 mg/kg/day DON equivalent	higher = more metabolite	5.33e+08 a.u. and 3.93e+08 a.u. and 5.7e+08 a.u. and 5.21e+08 a.u. and 4.18e+08 a.u. and 5.64e+08 a.u.
UPLC-MS/MS, refers to: lysine	EL4, C57BL/6 CES1-/- mice, EL4 tumour, tumour	0.3 mg/kg/day DON equivalent, normalised to tissue mass	higher = more metabolite	1.36e+09 a.u. and 1.62e+09 a.u. and 1.32e+09 a.u. and 1.2e+09 a.u. and 1.38e+09 a.u. and 1.44e+09 a.u.
LC-MS/MS metabolomics, refers to: phosphate	C57BL/6 CES1-/- mice, EL4 tumour, EL4 tumour	0.3 mg/kg/day DON equivalent	higher = more metabolite	3.42e+08 a.u. and 3.28e+08 a.u. and 2.99e+08 a.u. and 2.77e+08 a.u. and 3.13e+08 a.u. and 2.87e+08 a.u.
UPLC-MS/MS metabolomics, refers to: guanosine 2'-monophosphate	C57BL/6 CES1-/- mice, EL4 tumour, EL4 tumour	0.3 mg/kg/day DON equivalent, normalised to tissue mass	–	96900 a.u. and 165000 a.u. and 172000 a.u. and 132000 a.u. and 210000 a.u. and 90600 a.u.
LC-MS/MS, refers to: methyl glucopyranoside (alpha+beta)	C57BL/6 CES1-/- mice, EL4 tumour	0.3 mg/kg DON equivalent	–	242000 a.u. and 244000 a.u. and 165000 a.u. and 160000 a.u. and 220000 a.u. and 273000 a.u.
LC-MS/MS metabolomics, refers to: methylsuccinate	C57BL/6 CES1-/- mice, EL4 tumour, EL4 tumour	0.3 mg/kg/day DON equivalent	higher = more metabolite	3.58e+08 a.u. and 1.71e+08 a.u. and 4.5e+08 a.u. and 1.68e+08 a.u. and 1.24e+08 a.u. and 1.5e+08 a.u.

Block 2 — cell line: mouse MPNST tumor cells; method: high-content immunofluorescence imaging; refers to: nuclear SOX9; tested at: 10 µM; time: 12 h; setting: mean of 2 replicates; baseline: DMSO control; reading: higher = more nuclear SOX9
Structure (SMILES)	nuclear SOX9 intensity
CC1(C)OC(=O)NC1=O	101 % of DMSO
CCN1CCCC(OC(=O)C(c2ccccc2)c2ccccc2)C1 (centres unmarked)	132 % of DMSO
O=C(O)CCC(=O)c1ccc(-c2ccccc2)cc1	114 % of DMSO
NC(=O)NO	118 % of DMSO
C[C@H](CCC(=O)O)[C@H]1CC[C@H]2[C@@H]3C(=O)C[C@@H]4CC(=O)CC[C@]4(C)[C@H]3CC(=O)[C@]12C	95.6 % of DMSO
CCN(CC)S(=O)(=O)c1ccc(Cl)c(C(=O)Nc2ccc3nc(C)sc3c2)c1	100 % of DMSO
CC[N+](CC)(CC)CCOc1cccc(OCC[N+](CC)(CC)CC)c1OCC[N+](CC)(CC)CC	99.4 % of DMSO
CCCN[C@H]1CCc2nc(N)sc2C1	97.7 % of DMSO and 102 % of DMSO and 103 % of DMSO
CNCCCC1(c2ccccc2)OC(C)(C)c2ccccc21 (centres unmarked)	132 % of DMSO
Cc1ncc(Cl)cc1NCc1ccc(C(=O)N[C@@H](CC2CCCC2)C(=O)NC2CC2)s1	109 % of DMSO

Block 3 — effect on: enzyme activity; action: inhibitor; tested at: 0.5 µM; baseline: control
Target: Fibroblast growth factor receptor 4 (FGFR4, Homo sapiens, UniProt P22455)
Chain of UniProt P22455 (whole entry, looked up): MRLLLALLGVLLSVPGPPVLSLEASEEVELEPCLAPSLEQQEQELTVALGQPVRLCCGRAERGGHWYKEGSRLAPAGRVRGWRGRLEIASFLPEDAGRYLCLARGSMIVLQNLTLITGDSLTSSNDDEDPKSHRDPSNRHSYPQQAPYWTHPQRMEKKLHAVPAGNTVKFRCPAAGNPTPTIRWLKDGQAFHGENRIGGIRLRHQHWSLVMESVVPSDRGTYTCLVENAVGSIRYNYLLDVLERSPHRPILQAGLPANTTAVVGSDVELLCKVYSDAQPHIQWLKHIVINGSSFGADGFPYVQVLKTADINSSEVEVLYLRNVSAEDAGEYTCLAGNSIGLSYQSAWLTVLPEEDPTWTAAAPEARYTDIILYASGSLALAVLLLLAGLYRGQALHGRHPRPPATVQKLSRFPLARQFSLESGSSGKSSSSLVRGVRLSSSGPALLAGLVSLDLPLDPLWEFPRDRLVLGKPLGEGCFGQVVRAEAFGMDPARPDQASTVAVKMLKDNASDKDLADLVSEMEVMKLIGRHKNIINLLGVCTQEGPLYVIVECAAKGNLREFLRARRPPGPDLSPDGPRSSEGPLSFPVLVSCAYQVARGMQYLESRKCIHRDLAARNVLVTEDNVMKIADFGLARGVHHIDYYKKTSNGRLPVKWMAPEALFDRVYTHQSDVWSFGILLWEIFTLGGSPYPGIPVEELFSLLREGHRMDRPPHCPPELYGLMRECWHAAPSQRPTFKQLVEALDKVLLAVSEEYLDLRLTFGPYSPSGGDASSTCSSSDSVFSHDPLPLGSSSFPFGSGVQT
Structure (SMILES)	remaining activity
Cc1nc2cc3nc(-c4cccs4)cnc3cc2n1C	96.3%
N#C/C(=C\c1ccc(O)c(O)c1)C(=O)NCc1ccccc1	84.2%
CN([C@@H](Cc1ccc(OS(=O)(=O)c2cccc3cnccc23)cc1)C(=O)N1CCN(c2ccccc2)CC1)S(=O)(=O)c1cccc2cnccc12	110%
c1ccc(-c2cnc(Nc3ccc(OCCN4CCCC4)cc3)s2)cc1	95.6%
c1ccc(-c2[nH]ncc2-c2ccnc3ccccc23)nc1	80.6%
CN(C)C[C@H]1CCn2c(c(C3=C(c4cn(C)c5ccccc45)C(=O)NC3=O)c3ccccc32)C1	89.6%
COc1cc2c(cc1OC)-c1[nH]nc(Nc3cccc(F)c3)c1C2	91.6%
CCN(CC)C(=O)c1ccc(Nc2nc(OCC3CCCCC3)c3[nH]cnc3n2)cc1	94.4%
C[C@@H]1CCN(C(=O)CC#N)C[C@@H]1N(C)c1ncnc2[nH]ccc12	94.3%
Cc1cc2ncc(-c3ccccc3)nc2cc1C	77.2%
CCOc1nc(NC(=O)Cc2cc(OC)ccc2OC)cc(N)c1C#N	109%
O=c1cc(-c2cccc3c2Sc2ccccc2S3)oc(N2CCOCC2)c1	100%

Block 4 — cell line: normal organoid sample E; method: CellTiter-Glo; host: human; medium: normal-adjacent epithelium; tested at: 1 µM; baseline: DMSO
SMILES	viability
CO[C@@H](C)c1c(Nc2ccc([C@@H](N(C)C(=O)C3CCS(=O)(=O)CC3)C(F)(F)F)cc2)cnc2cc(Cl)nn12	138% and 120%
Cc1cnc(-c2cc(Cl)ccc2F)cc1-n1c(=O)n(CC(N)=O)c2cnccc21	105% and 134%
Cc1nc(N2CC[C@@H](O)C2)ncc1-c1cc(C(F)(F)F)cc2[nH]ncc12	103% and 99.3%
Cc1ccc2[nH]c(CNCCCc3ccncc3)cc(=O)c2c1	109% and 95.8%
O=C(N1CCS(=O)(=O)CC1)N1C[C@H](c2ccc(OC(F)(F)F)cc2)C[C@H](c2nc(C3CC3)no2)C1	128% and 51.1%
CC(=O)N1CCC(c2ccc(C(=O)NC(=N)N)cc2C(F)(F)F)CC1	92.2% and 100%
CC(=O)C1=C(C)N(c2cccc(C(F)(F)F)c2)C(=O)N[C@@H]1c1ccc(C#N)nc1	117% and 112%
Cc1c(NC(=O)c2ccc(C(C)(C)C)cc2)cccc1-c1cn(C)c(=O)c(Nc2ccc(C(=O)N3CCOCC3)cc2)n1	95.6% and 78.7%
c1ccc(N2CCN(Cc3nc4ccccc4[nH]3)CC2)nc1	140% and 129%
Cn1cc(Cl)c2c(Oc3c(F)cc(Nc4cc(Cl)nc(N)n4)cc3F)ccnc21	116% and 256%
CC(=O)c1c(NS(C)(=O)=O)c2cc(-c3ccc(Cl)cc3)c(-c3ccc(Cl)cc3Cl)nc2n(C)c1=O	83.7% and 95.3%
CN([C@@H]1CCc2c(CC(=O)O)c3ccccc3n2C1)S(=O)(=O)c1ccc(F)cc1	125% and 120%

For quick reference, copied from above (block 1):
assay	test system	setting	how to read	metabolite peak intensity
LC-MS/MS, refers to: methyl glucopyranoside (alpha+beta)	C57BL/6 CES1-/- mice, EL4 tumour	0.3 mg/kg DON equivalent	–	242000 a.u. and 244000 a.u. and 165000 a.u. and 160000 a.u. and 220000 a.u. and 273000 a.u.
LC-MS/MS metabolomics, refers to: methylsuccinate	C57BL/6 CES1-/- mice, EL4 tumour, EL4 tumour	0.3 mg/kg/day DON equivalent	higher = more metabolite	3.58e+08 a.u. and 1.71e+08 a.u. and 4.5e+08 a.u. and 1.68e+08 a.u. and 1.24e+08 a.u. and 1.5e+08 a.u.
UPLC-MS/MS metabolomics, refers to: guanosine 2'-monophosphate	C57BL/6 CES1-/- mice, EL4 tumour, EL4 tumour	0.3 mg/kg/day DON equivalent, normalised to tissue mass	–	96900 a.u. and 165000 a.u. and 172000 a.u. and 132000 a.u. and 210000 a.u. and 90600 a.u.
UPLC-MS/MS, refers to: lysine	EL4, C57BL/6 CES1-/- mice, EL4 tumour, tumour	0.3 mg/kg/day DON equivalent, normalised to tissue mass	higher = more metabolite	1.36e+09 a.u. and 1.62e+09 a.u. and 1.32e+09 a.u. and 1.2e+09 a.u. and 1.38e+09 a.u. and 1.44e+09 a.u.
LC-MS/MS metabolomics, refers to: orotidine	C57BL/6 CES1-/- mice, EL4 tumour, EL4 tumour	0.3 mg/kg/day DON equivalent	higher = more metabolite	2.5e+07 a.u. and 5.13e+07 a.u. and 6.8e+07 a.u. and 4.88e+07 a.u. and 3.72e+07 a.u. and 4.96e+07 a.u.
